Experimental data collected from several papers.
Each line is one published result; not all experiments were run side by side.
Organism: Pseudomonas aeruginosa

Structure (SMILES) | assay | system | conditions | MIC
CN[C@H](CC(C)C)C(=O)N[C@H]1C(=O)N[C@@H](CC(N)=O)C(=O)N[C@H]2C(=O)N[C@H]3C(=O)N[C@H](C(=O)N[C@H](C(=O)NCC(N)=O)c4cc(O)cc(O)c4-c4cc3ccc4O)[C@H](O)c3ccc(c(Cl)c3)Oc3cc2cc(c3O[C@@H]2O[C@H](CO)[C@@H](O)[C@H](O)[C@H]2O[C@H]2C[C@](C)(NCc3ccc(OCc4cn(CC(=O)N[C@H](C(=O)N[C@@H](CCN)C(=O)N[C@H]5CCNC(=O)[C@H]([C@@H](C)O)NC(=O)[C@H](CCN)NC(=O)[C@H](CCN)NC(=O)[C@H](CC(C)C)NC(=O)[C@@H](CC(C)C)NC(=O)[C@H](CCN)NC5=O)[C@@H](C)O)nn4)c(OC)c3)[C@H](O)[C@H](C)O2)Oc2ccc(cc2Cl)[C@H]1O | broth microdilution | ATCC 35218, cation-adjusted Mueller-Hinton broth | – | 3 µM
CCCCCCCC(=O)N[C@@H](CCN)C(=O)N[C@H](C(=O)N[C@@H](CCN)C(=O)N[C@H]1CCNC(=O)[C@H]([C@@H](C)O)NC(=O)[C@H](CCN)NC(=O)[C@H](CCN)NC(=O)[C@H](CC(C)C)NC(=O)[C@@H](Cc2ccc(Br)cc2)NC(=O)[C@H](CCN)NC1=O)[C@@H](C)O | broth microdilution | colistin-resistant isolates | – | 0.125 to 0.25 µg/mL
O=c1n(CCNCCOS(=O)(=O)c2ccccc2)c(=O)n(S(=O)(=O)c2ccccc2)c(=O)n1S(=O)(=O)c1ccccc1 | microbial growth, broth dilution | – | – | 2 µg/mL
CC(C)C[C@H](NC(=O)[C@H](CCC(=O)O)NC(=O)[C@H](C)NC(=O)[C@H](CC(C)C)NC(=O)[C@H](CCC(=O)O)NC(=O)[C@H](C)NC(=O)[C@H](CCC(N)=O)NC(=O)[C@H](CC(C)C)NC(=O)[C@H](CCC(=O)O)NC(=O)[C@H](Cc1ccc(O)cc1)NC(=O)[C@H](CC(C)C)NC(=O)[C@H](CCC(N)=O)NC(=O)[C@H](C)NC(=O)[C@H](CCC(=O)O)NC(=O)[C@H](CC(C)C)NC(=O)[C@H](CCC(N)=O)NC(=O)[C@H](C)NC(=O)[C@H](CC(C)C)NC(=O)[C@H](CCC(=O)O)NC(=O)[C@H](C)NC(=O)[C@@H](N)CCC(N)=O)C(N)=O | – | ATCC 27853 | 24 h | > 250 µM
CN[C@@H]1[C@H](O)[C@H](NC)[C@H]2O[C@]3(O)[C@H](O[C@@H]2[C@H]1O)O[C@H](C)C[C@H]3NC(=O)Cc1ccccc1 | microbial growth, broth dilution | PAO1 | – | 100 µg/mL
C#CCOc1ccc(CN[C@@]2(C)C[C@H](O[C@H]3[C@H](Oc4c5cc6cc4Oc4ccc(cc4Cl)[C@@H](O)[C@@H](NC(=O)[C@@H](CC(C)C)NC)C(=O)N[C@@H](CC(N)=O)C(=O)N[C@H]6C(=O)N[C@H]4C(=O)N[C@H](C(=O)N[C@H](C(=O)N[C@@H](CCCNC(=N)N)C(N)=O)c6cc(O)cc(O)c6-c6cc4ccc6O)[C@H](O)c4ccc(c(Cl)c4)O5)O[C@H](CO)[C@@H](O)[C@@H]3O)O[C@@H](C)[C@H]2O)cc1OC | broth microdilution | ATCC 25922, cation-adjusted Mueller-Hinton broth | – | 9 µM
CC[C@H](C)[C@H](NC(=O)[C@@H](CCCNC(=N)N)NC(=O)[C@H](CCCNC(=N)N)NC(=O)[C@@H]1CCCN1C(=O)[C@@H]1CCCN1C(=O)[C@H](CCCNC(=N)N)NC(=O)[C@@H]1CCCN1C(=O)[C@H](CCCNC(=N)N)NC(=O)[C@@H]1CCCN1C(=O)[C@H](CC(C)C)NC(=O)[C@H](Cc1cc(I)c(O)c(I)c1)NC(=O)[C@@H]1CCCN1C(=O)[C@@H]1CCCN1C(=O)[C@H](CCCCN)NC(=O)[C@H](CC(=O)O)NC(=O)[C@@H](N)C(C)C)C(=O)N[C@@H](Cc1ccc(O)cc1)C(=O)N[C@@H](CC(N)=O)C(=O)N[C@H](CCCNC(=N)N)C(N)=O | broth microdilution | DSM 1117 | 18 h, 37 °C, 25% MHB2 | > 128 µg/mL
CN[C@H](CC(C)C)C(=O)N[C@H]1C(=O)N[C@@H](CC(N)=O)C(=O)N[C@H]2C(=O)N[C@H]3C(=O)N[C@H](C(=O)N[C@H](C(=O)NCc4cn(CCCCC(=O)N[C@H](C(=O)N[C@@H](CCN)C(=O)N[C@H]5CCNC(=O)[C@H]([C@@H](C)O)NC(=O)[C@H](CCN)NC(=O)[C@H](CCN)NC(=O)[C@H](CC(C)C)NC(=O)[C@@H](CC(C)C)NC(=O)[C@H](CCN)NC5=O)[C@@H](C)O)nn4)c4cc(O)cc(O)c4-c4cc3ccc4O)[C@H](O)c3ccc(c(Cl)c3)Oc3cc2cc(c3O[C@@H]2O[C@H](CO)[C@@H](O)[C@H](O)[C@H]2O[C@H]2C[C@](C)(N)[C@H](O)[C@H](C)O2)Oc2ccc(cc2Cl)[C@H]1O | broth microdilution | ATCC 10145, cation-adjusted Mueller-Hinton broth | – | > 50 µM
CC[C@H](C)[C@H](NC(=O)[C@H](Cc1c[nH]c2ccccc12)NC(=O)[C@H](CCCNC(=N)N)NC(=O)[C@@H](N)CCCNC(=N)N)C(=O)N[C@@H](CCCNC(=N)N)C(=O)N[C@@H](Cc1c[nH]c2ccccc12)C(=O)N[C@H](C(=O)N[C@H](C(N)=O)[C@@H](C)O)[C@@H](C)CC | – | 27023 | – | 32 µg/mL

Some of these lines once more:
Structure (SMILES) | assay | system | conditions | MIC
C#CCOc1ccc(CN[C@@]2(C)C[C@H](O[C@H]3[C@H](Oc4c5cc6cc4Oc4ccc(cc4Cl)[C@@H](O)[C@@H](NC(=O)[C@@H](CC(C)C)NC)C(=O)N[C@@H](CC(N)=O)C(=O)N[C@H]6C(=O)N[C@H]4C(=O)N[C@H](C(=O)N[C@H](C(=O)N[C@@H](CCCNC(=N)N)C(N)=O)c6cc(O)cc(O)c6-c6cc4ccc6O)[C@H](O)c4ccc(c(Cl)c4)O5)O[C@H](CO)[C@@H](O)[C@@H]3O)O[C@@H](C)[C@H]2O)cc1OC | broth microdilution | ATCC 25922, cation-adjusted Mueller-Hinton broth | – | 9 µM
